Published values from different studies.
Each line is one published result; not all experiments were run side by side. ± marks the error that the study gave.
CYP1A1: Cytochrome P450 1A1 (CYP1A1, Homo sapiens, UniProt P04798)
Sequence of UniProt P04798 (whole entry, looked up): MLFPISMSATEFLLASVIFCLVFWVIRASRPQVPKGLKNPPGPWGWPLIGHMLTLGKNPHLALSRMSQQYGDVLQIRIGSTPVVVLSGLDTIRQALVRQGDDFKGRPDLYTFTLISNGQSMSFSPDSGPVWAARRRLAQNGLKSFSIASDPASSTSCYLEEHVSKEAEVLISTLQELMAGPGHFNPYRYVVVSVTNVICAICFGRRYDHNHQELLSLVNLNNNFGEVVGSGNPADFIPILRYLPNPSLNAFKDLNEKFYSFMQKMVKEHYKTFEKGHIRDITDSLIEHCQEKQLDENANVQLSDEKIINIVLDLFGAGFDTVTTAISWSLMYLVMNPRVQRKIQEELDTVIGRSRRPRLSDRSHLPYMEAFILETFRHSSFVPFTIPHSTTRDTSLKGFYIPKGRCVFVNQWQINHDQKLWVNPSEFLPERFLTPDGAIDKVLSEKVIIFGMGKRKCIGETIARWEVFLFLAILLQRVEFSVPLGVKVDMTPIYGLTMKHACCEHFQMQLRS
CYP11A1: Cholesterol side-chain cleavage enzyme, mitochondrial (CYP11A1, Homo sapiens, UniProt P05108)
Sequence of UniProt P05108 (whole entry, looked up): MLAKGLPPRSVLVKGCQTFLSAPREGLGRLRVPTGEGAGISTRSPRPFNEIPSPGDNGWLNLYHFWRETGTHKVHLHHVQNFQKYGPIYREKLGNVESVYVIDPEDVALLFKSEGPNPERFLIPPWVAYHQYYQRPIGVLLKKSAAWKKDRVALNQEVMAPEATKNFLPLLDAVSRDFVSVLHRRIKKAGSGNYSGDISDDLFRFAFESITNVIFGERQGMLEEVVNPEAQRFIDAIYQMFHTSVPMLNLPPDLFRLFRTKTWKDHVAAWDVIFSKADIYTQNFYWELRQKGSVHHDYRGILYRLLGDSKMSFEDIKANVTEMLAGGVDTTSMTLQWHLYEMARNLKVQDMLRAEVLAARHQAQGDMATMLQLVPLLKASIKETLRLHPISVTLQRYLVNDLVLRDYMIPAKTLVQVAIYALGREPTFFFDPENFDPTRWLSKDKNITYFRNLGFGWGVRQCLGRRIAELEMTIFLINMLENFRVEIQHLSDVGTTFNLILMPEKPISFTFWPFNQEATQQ
ALB: Albumin (ALB, Bos taurus, UniProt P02769)
Sequence of UniProt P02769 (whole entry, looked up): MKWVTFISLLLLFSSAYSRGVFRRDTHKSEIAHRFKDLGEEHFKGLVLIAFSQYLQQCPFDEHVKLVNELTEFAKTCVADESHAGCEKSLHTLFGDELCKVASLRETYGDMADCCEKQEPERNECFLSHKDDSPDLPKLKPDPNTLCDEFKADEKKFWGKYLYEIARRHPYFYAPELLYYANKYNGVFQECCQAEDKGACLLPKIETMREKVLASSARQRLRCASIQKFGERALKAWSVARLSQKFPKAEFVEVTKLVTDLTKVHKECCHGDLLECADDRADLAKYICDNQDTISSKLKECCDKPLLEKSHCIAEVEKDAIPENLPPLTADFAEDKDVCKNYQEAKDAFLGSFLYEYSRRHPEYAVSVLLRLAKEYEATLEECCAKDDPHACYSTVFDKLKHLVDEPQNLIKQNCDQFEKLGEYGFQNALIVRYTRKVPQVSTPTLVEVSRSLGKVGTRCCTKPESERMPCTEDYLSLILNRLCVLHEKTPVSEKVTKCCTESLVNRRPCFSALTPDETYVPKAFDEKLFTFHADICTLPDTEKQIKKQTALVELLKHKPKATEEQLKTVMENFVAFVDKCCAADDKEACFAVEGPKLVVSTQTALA
Sequence of UniProt P04799 (whole entry, looked up): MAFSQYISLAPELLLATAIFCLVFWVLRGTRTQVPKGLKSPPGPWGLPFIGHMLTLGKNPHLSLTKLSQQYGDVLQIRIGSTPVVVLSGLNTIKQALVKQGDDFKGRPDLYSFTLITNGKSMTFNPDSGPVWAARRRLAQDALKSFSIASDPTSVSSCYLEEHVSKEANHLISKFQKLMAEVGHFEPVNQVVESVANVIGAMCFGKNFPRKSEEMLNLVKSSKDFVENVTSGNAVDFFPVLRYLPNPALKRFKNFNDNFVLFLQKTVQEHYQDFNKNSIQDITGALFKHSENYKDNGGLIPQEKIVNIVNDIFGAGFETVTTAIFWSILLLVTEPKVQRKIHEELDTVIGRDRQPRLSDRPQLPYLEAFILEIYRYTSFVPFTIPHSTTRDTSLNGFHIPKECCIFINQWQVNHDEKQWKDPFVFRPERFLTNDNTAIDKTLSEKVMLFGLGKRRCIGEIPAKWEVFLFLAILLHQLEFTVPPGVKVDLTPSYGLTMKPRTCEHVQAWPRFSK
Sequence of UniProt O43704 (whole entry, looked up): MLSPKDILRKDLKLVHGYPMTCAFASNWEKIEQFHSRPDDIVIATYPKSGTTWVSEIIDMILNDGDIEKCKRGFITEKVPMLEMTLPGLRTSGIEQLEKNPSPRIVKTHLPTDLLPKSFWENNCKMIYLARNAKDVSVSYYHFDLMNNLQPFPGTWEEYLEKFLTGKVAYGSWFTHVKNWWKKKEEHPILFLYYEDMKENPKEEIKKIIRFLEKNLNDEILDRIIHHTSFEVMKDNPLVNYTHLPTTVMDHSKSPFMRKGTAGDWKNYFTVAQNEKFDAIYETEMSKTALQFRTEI
Sequence of UniProt P08684 (whole entry, looked up): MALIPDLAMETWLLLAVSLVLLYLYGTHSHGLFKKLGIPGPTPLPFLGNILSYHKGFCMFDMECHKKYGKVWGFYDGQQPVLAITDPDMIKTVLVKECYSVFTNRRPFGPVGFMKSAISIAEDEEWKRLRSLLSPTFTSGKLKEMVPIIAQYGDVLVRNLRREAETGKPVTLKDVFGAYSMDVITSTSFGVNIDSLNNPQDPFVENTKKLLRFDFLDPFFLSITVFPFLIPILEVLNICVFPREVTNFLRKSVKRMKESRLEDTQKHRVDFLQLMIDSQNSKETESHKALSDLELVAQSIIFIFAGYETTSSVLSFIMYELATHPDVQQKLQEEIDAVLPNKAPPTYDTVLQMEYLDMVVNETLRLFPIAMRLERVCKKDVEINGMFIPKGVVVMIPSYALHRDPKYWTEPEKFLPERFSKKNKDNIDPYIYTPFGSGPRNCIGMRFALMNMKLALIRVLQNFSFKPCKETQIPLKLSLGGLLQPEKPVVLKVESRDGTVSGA
Sequence of UniProt P16257 (whole entry, looked up): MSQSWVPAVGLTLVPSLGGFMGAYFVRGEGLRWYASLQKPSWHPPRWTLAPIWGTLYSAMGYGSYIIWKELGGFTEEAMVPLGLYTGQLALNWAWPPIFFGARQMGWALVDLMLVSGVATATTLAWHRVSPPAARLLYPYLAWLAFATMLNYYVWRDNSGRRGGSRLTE
Sequence of UniProt P51589 (whole entry, looked up): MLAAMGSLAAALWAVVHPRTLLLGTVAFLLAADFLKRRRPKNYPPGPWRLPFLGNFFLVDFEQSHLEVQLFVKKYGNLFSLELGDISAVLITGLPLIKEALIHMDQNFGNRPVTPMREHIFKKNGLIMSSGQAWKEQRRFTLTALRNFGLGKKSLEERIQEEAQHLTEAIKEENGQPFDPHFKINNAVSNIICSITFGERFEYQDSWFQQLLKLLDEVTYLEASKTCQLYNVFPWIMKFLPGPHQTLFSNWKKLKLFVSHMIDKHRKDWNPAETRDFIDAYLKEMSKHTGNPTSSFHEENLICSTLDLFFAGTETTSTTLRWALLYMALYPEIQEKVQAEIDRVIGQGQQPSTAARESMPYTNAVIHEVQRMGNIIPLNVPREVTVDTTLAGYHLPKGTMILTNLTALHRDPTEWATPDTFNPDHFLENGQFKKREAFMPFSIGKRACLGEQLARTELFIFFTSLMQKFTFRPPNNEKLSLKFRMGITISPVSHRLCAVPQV

SMILES | target | assay | test system | conditions | how to read | measurement | result
COc1cc2oc(-c3ccc(C(F)(F)F)cc3F)cc(=O)c2c(O)c1O | Fe(III) | spectrophotometric titration | methanol/water 80/20 w/w | 25.0 °C, ionic strength 0.1 M, pH 2.0 |  | log conditional stability constant | 5.8
O=C(O)C(O)Cc1ccc(O)c(O)c1 (stereo not shown) | SULT1B1 (Homo sapiens, UniProt O43704) | sulfation, substrate, cDNA-expressed enzyme |  | 500 µM, 120 min | baseline: SULT1A3 | relative activity | 18%
O=C(O)[C@@H]1C[C@@H](O)CN1C(=O)[C@@H]1CCCN1 | iron(III) ion | complex formation, Van't Hoff plot | aqueous 0.15 M NaCl | MAH−2 complex species |  | ΔS | -1.73 kJ/mol/K
[64Cu+2].c1cnc(CNCc2ccc(CN3CCCN4CCNCCCN(CC4)CC3)cc2)nc1 | CXCR4 |  | NOD/SCID mouse, U87 and U87-stb-CXCR4 xenografts, pancreas | iv, 90 min, no blocking dose, ex vivo |  | tissue uptake | 0.77 ± 0.14 %ID/g
CCc1cc(C)n2nc(-c3ccc(OCC[18F])cc3)c(CC(=O)N(CC)CC)c2n1 | Tspo (Rattus norvegicus, UniProt P16257) | two-tissue compartment model | rat C6 glioma model, brain | dose not given, 60 min dynamic PET |  | total distribution volume | 7.42 ± 0.931 mL/cm3
COc1c(C(=O)/C=C/c2ccccc2)c(O)c(OC)c2occc12 | CYP1A1 |  | HEK293 overexpressing CYP1A1 | 10 µM |  | inhibition | 97%
C=C1CCC(O)CC1=CC=C1CCCC2(C)C1CCC2C(C)(C)O (stereo not shown) | CYP11A1 | substrate |  | 50 µM, 2 h, 0.45% cyclodextrin, 1 µM enzyme |  | number of products | 0
C#Cc1ccc2oc(-c3ccccc3)cc(=O)c2c1 | CYP1A1 | EROD |  |  | baseline: Ki CYP1A2 over Ki CYP1A1 | selectivity ratio | 177
COc1ccc(S(=O)(=O)N(C)/N=C/c2ccc(C#N)cc2)cc1OC | Cytochrome P450 1A2 (Cyp1a2, Rattus norvegicus, UniProt P04799) | substrate | Wistar rat liver microsomes | 10 µM, 240 min, 37 °C, added: furafylline 40 µM |  | decrease of metabolism rate | ~50%
[64Cu+2].c1ccc(CNCc2ccc(CN3CCCN4CCNCCCN(CC4)CC3)cc2)nc1 | CXCR4 |  | NOD/SCID mouse, U87 and U87-stb-CXCR4 xenografts, pancreas | iv, 240 min, ex vivo |  | tissue uptake | 1.7 ± 0.2 %ID/g
C=C1CCC(O)CC1=CC=C1CCCC2(C)C1CCC2C(C)(O)c1ccccc1 (stereo not shown) | CYP11A1 | substrate |  | 50 µM, 2 h, 0.45% cyclodextrin, 1 µM enzyme |  | substrate conversion | 83%
O=C(O[C@@H]1Cc2c(O)cc(O)cc2O[C@@H]1c1cc(O)c(O)c(O)c1)c1cc(O)c(O)c(O)c1 | ALB | binding, fluorescence quenching |  | 25 µM, 1 h, pH 3.0, added: BSA 3 µM | baseline: untreated | remaining fluorescence | 68.4%
COc1cc2oc(-c3ccccc3)cc(=O)c2c(O)c1O | Fe(III) | spectrophotometric titration | methanol/water 80/20 w/w | 25.0 °C, ionic strength 0.1 M, pH 2.0 |  | log conditional stability constant | 5.4
Cn1ccn(N=Cc2ccccc2SSc2ccccc2C=Nn2ccn(C)c2=S)c1=S | ALB | optical absorption spectra |  | added: BSA 40 µM |  | adduct stability time | ≥ 8 h
COc1c(C(=O)/C=C/c2ccc(F)cc2)c(O)c(OC)c2occc12 | CYP2 and CYP3 panel, human |  | yeast microsomes | 15 min, pH 7.4, value for all nine CYPs |  | IC50 | > 20 µM
[2H]c1c(NS(C)(=O)=O)c([2H])c2c(C(=O)c3ccc(OCCCN(CCCC)CCCC)cc3)c(CCCC)oc2c1[2H] | Cytochrome P450 2J2 (CYP2J2, Homo sapiens, UniProt P51589) |  | recombinant enzyme | 1 µM |  | intrinsic clearance | 0.65 µL/min/pmol
COc1cc2oc(-c3ccc(F)cc3)cc(=O)c2c(O)c1O | Fe(III) | spectrophotometric titration | methanol/water 80/20 w/w | 25.0 °C, ionic strength 0.1 M, pH 2.0 |  | log conditional stability constant | 4.7
COc1ccc2cc(NC(=O)c3cc(-c4ccncc4)nc4ccccc34)ccc2c1 | Cytochrome P450 3A4 (CYP3A4, Homo sapiens, UniProt P08684) | substrate, refers to: metabolites M1 plus M2 | baculosomes |  |  | kcat | 0.0172 s⁻¹
C=C1CCC(O)CC1=CC=C1CCCC2(C)C1CCC2C(C)(O)CCCCCC (stereo not shown) | CYP11A1 | substrate |  | 50 µM, 2 h, 0.45% cyclodextrin, 1 µM enzyme |  | number of products | 7

For quick reference, copied from above:
SMILES | target | assay | test system | conditions | how to read | measurement | result
O=C(O[C@@H]1Cc2c(O)cc(O)cc2O[C@@H]1c1cc(O)c(O)c(O)c1)c1cc(O)c(O)c(O)c1 | ALB | binding, fluorescence quenching |  | 25 µM, 1 h, pH 3.0, added: BSA 3 µM | baseline: untreated | remaining fluorescence | 68.4%
